Published values of several laboratories.
Parts stem from different laboratories: compare values within a part only.

Block 1 — technique: universal PBM; form: double-stranded DNA, one strand shown; matrix: in vitro; concentration: not given; direction: higher = stronger binding; endpoint: E-score
Target: Sal-like protein 4, full length isoform B (SALL4, Homo sapiens, UniProt Q9UJQ4-2, residues 1-616)
Notes: 8-mer, flanks averaged, mean of replicates
CCCACCAG: -0.251
AAAGCCTC: -0.0508
TCTTTAAA: 0.226
AATATCAA: 0.338
GCAAACGC: -0.16
AGCCCAAC: -0.183
ACCTCGCC: -0.281
CTTAGGGC: -0.111
AAATAGCC: 0.0323
CACAAACC: -0.0761
TGCTTTAA: 0.104
CTGCGTTA: -0.0492
CGGGCTAC: -0.27
GGTCTTAA: -0.00709
CCAAACCC: -0.0519
ACTTTACT: 0.155
ATGCTGTG: 0.0477
CGTCCGAG: -0.25
ACCTTACC: -0.0101
AACGAGCA: 0.00012
ACTAGGCG: 0.0115

Block 2 — technique: competition protein-binding microarray; form: double-stranded DNA, one strand shown; matrix: in vitro; concentration: 2 µM; added: Pho4 competitor, 0.05 µM; direction: higher = stronger binding; endpoint: fluorescence intensity
Target: Centromere-binding protein 1, full length, His-tagged (CBF1, Saccharomyces cerevisiae, UniProt P17106, residues 1-351)
UniProt P17106, sequence (whole entry, looked up): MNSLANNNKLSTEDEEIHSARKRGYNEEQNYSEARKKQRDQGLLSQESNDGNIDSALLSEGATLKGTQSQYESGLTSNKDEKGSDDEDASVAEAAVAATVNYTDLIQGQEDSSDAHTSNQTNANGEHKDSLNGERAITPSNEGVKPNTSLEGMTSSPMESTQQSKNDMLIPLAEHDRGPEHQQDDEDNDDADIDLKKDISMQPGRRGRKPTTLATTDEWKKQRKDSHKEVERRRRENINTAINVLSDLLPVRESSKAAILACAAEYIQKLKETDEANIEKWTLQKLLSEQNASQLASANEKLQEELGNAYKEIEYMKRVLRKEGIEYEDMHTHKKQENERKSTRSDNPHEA
Notes: whole 60-bp probe, lowest competitor level
CTTCTGTAAATTTTTCACGTGCAGTGAAGCGCCCCGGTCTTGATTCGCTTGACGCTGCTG: 783 a.u.
CTTCTGTAAATTTGAATTGTGGGTGGACGCGCCCCGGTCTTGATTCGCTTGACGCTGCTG: 83.8 a.u.
CGGGGTTAAGTTTTTCACGTGAGATGCTTGCAGCAGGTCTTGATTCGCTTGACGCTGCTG: 908 a.u.
CTCTTCCTGAATTTGCACGGGGAACCAAGGCCTATCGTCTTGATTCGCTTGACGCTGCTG: 85.4 a.u.
AAATTACTAAGTTGGGTCGTGGGTGACGCCGTATGAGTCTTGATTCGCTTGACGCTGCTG: 62.9 a.u.
TTCCATTTGAACTGTCACATGACGAAACAGATGAACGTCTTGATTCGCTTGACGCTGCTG: 2100 a.u.
CTTTCCCGATCTTGAGTCGTGGGTGTAGCACATTTGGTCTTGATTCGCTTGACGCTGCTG: 69.1 a.u.
ATACTTGCATTCGACCACGTGCTTTGGCATGTATCTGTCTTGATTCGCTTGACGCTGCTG: 2290 a.u.
CCATGCCCGGGTACCCACGGCTCCTCGGAGGCCGGGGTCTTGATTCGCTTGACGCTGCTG: 50.7 a.u.
TGTTAATATACCGACATCGTGTTTTGGGGAATGGGTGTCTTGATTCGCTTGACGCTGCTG: 77.2 a.u.
CTAACGAAGGTTTGCGACGTGGGTGACAAGCCAAGTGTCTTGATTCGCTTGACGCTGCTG: 75.1 a.u.
AAAGCGGTAATTTTTCACGTGTTATCAAATATCTATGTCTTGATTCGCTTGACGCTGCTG: 1480 a.u.
AAAGCGGTAATTTGATTGGTGGGTGCAGATATCTATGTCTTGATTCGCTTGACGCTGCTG: 73.3 a.u.
AACTCACCCCATTTGCTCGTGGGTAGTGACGACCGCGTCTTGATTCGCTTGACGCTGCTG: 65.5 a.u.
AAAGATTTGATAAAGCACGTGTCGGATTAGATGCTTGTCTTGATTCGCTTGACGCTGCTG: 1990 a.u.
CAGTTGTTACAGTTGCCCGTGAAGGTAGCAATGAACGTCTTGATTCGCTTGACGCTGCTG: 86.4 a.u.
GCAAAAAAAGCCCATCACGTGATGGGGAAGATTTCAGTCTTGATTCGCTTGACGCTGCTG: 8880 a.u.
CATACCCAACCTTGTCACGCTACTTAAGATATTTGTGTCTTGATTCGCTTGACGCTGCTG: 292 a.u.
GGTTCGTAGCCAGACGCCGTGACGGTTGGGCCTCTAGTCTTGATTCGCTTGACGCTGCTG: 50.9 a.u.

Block 3 — technique: RNA Bind-n-Seq; form: RNA; matrix: in vitro; concentration: 365 nM; reference: no-protein control; direction: higher = stronger binding; endpoint: RBNS enrichment (R)
Target: RNA binding protein fox-1 homolog 2, RRM domain, GST-SBP tag (RBFOX2, Homo sapiens, UniProt O43251-10, residues 100-194)
Notes: natural RNA segment, single round, ends assumed
Residues (chain): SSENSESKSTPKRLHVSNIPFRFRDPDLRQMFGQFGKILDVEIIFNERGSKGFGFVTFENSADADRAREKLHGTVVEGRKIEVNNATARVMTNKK
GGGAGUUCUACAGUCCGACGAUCCCAGCUAUUUGGCAGGCUGAGGCAUGAGAAUCGCUUGAACCCAGGAGGUGGAGGUUACAGUGAGCUGAGAGUGCCCCACUGCACUCCAGCCUGGGUGACAGAGCGAGACUUGGAAUUCUCGGGUGCCAA: 0.347
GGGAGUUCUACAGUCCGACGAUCCCUCUACUUUUGCCCCUCUACUGUAUAUUAAGCCCAUAGGCUUGUGGGAGGAAGGAGAAUUUCCAUUAGGCAAGCUGUAUGCAGUGGAAUUUUCCUUUUAGGAGACACACUGGAAUUCUCGGGUGCCAA: 1.95
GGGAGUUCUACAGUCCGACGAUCAAGAUCACACCACUGCACUCCAGCCUGGGCGACAGAGGGAGACACUGUCUCCAAAAGAAAGAAAUCCCAGCGUAGAUCCAAACUGAGACACUGAGGCUUCGUCCUUAUAGUGGAAUUCUCGGGUGCCAA: 0.179
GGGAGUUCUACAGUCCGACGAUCCAUGUGGAUAGAUAGAAGUGUCCUGUUUUGAUACUAAUUUUGAAAGUUGAUUAUCUUCUCUUGAUAUCUUGGUUAAAACUGGCCACAAGAUAAACCAUUUGGAUAUAUUUUGGAAUUCUCGGGUGCCAA: 0.335
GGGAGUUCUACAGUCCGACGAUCCAUUGCCUGCACCUGAAACAGCCACCCACAUACACACUCUGGUAGGUCAGGGGGUCCCCGACAAUCCUGGACAAUCCUGAGCAGAAUACCUCCUGUUACAGUGUCUCUUGUGGAAUUCUCGGGUGCCAA: 0.555
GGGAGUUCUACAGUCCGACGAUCGGCAGUGUUAACAUUGUACAGUGUAUGCAUAGAGGAGUCUCCUCUAUUUGAAGAACAAUGCAAAAUGAGGCUUUCAUUGAAGGGAGAAAAGAGAAAAAAAGAAAAAAAAAUGGAAUUCUCGGGUGCCAA: 4.6
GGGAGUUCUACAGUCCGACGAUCUUGGGAAGCAGUCGCCUGCCUGGGAAGUGGGUCUGUGUUUUCUCUAACUGCCACAGUGCUAUUUGUUUACCAUCAAAUUGUAUUGGUGUUUCCAGGGCUUGUUGGUACAAUGGAAUUCUCGGGUGCCAA: 0.276
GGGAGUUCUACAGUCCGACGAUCACAUGUCACACAAGAGGCCAUGCAUGUUUAACCUAAGCCCUCAAGGGGGCCUGAGGACAGCCUUUUCCUCAGUCCUUGAGAUCAUUGCUCAUCCGUGCCAAACUGGGUAGUGGAAUUCUCGGGUGCCAA: 7.56

Block 4 — technique: protein-binding microarray; form: hairpin DNA; matrix: in vitro; concentration: not given; reference: not given; direction: higher = stronger binding; endpoint: median fluorescence
Target: Hepatocyte nuclear factor 3-beta, forkhead domain (FOXA2, Homo sapiens, UniProt Q9Y261, residues 142-269)
Notes: whole hairpin DNA, median over replicate spots
Residues (chain): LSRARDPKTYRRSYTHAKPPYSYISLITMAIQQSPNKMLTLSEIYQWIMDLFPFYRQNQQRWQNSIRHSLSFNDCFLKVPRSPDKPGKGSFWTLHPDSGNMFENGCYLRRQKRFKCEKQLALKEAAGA
GAGGCCATGTAGACAACGCCTCCTGGCGTTGTCTACATGGCCTCACACTC: 3080 a.u.
GAGGCCATGTAACCACCGCCTCCTGGCGGTGGTTACATGGCCTCACACTC: 3230 a.u.
GAGGCCATGTAACCAACGCCTCCTGGCGTTGGTTACATGGCCTCACACTC (5mC at 13): 3190 a.u.
GAGGCCATGTAACCCGCGCCTCCTGGCGCGGGTTACATGGCCTCACACTC: 3400 a.u.
GAGGCCATGTGACCAACGCCTCCTGGCGTTGGTCACATGGCCTCACACTC: 3310 a.u.
GAGGCCATGTAAACCGCGCCTCCTGGCGCGGTTTACATGGCCTCACACTC: 3290 a.u.
GAGGCCATGTCGCCAACGCCTCCTGGCGTTGGCGACATGGCCTCACACTC (5mC at 11 33): 3230 a.u.
GAGGCCATGCACGCAACGCCTCCTGGCGTTGCGTGCATGGCCTCACACTC (5mC at 12): 3330 a.u.
GAGGCCATGTATCCAACGCCTCCTGGCGTTGGATACATGGCCTCACACTC: 3150 a.u.
GAGGCCATGTAAACCGCGCCTCCTGGCGCGGTTTACATGGCCTCACACTC (5mC at 29): 3380 a.u.
GAGGCCATGTCAACAACGCCTCCTGGCGTTGTTGACATGGCCTCACACTC (5mC at 11): 3410 a.u.
GAGGCCATCTAAACAACGCCTCCTGGCGTTGTTTAGATGGCCTCACACTC (5mC at 9): 2990 a.u.
GAGGCCATGTAAGCAACGCCTCCTGGCGTTGCTTACATGGCCTCACACTC: 3170 a.u.
GAGGCCGTGTAAACAACGCCTCCTGGCGTTGTTTACACGGCCTCACACTC (5mC at 38): 4950 a.u.
GAGGCCATGTAAACGACGCCTCCTGGCGTCGTTTACATGGCCTCACACTC: 3320 a.u.
GAGGCCCGGTAAACAACGCCTCCTGGCGTTGTTTACCGGGCCTCACACTC: 4190 a.u.
GAGGCCATGTAACCGACGCCTCCTGGCGTCGGTTACATGGCCTCACACTC (5mC at 14 30): 3240 a.u.
GAGGCCCGGCAAACAACGCCTCCTGGCGTTGTTTGCCGGGCCTCACACTC (5mC at 7 37): 3760 a.u.
GAGGCCATGCCGACAACGCCTCCTGGCGTTGTCGGCATGGCCTCACACTC (5mC at 33): 3330 a.u.
